{"data": "Measurements from different studies", "note": "A part holds a random share of what one study measured. Positions count from the first letter of the parent shown.", "UniProt Q8WTQ7, sequence (whole entry, looked up)": "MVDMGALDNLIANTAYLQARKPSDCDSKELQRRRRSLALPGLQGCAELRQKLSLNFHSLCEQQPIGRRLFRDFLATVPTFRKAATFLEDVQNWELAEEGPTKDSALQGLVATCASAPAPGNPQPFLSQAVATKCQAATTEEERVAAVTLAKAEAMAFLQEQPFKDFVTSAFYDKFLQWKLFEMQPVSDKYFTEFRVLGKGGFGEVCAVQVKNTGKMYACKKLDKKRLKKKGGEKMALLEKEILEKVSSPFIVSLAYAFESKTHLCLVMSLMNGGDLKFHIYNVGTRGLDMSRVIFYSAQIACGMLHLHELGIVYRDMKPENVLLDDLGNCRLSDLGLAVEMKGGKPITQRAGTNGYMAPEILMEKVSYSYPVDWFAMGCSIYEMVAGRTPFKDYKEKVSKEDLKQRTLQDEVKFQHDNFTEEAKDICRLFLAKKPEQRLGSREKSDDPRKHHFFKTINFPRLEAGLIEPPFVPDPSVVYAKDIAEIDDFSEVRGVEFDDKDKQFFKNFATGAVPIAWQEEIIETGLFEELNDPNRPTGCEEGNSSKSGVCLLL", "UniProt P0C1S8, sequence (whole entry, looked up)": "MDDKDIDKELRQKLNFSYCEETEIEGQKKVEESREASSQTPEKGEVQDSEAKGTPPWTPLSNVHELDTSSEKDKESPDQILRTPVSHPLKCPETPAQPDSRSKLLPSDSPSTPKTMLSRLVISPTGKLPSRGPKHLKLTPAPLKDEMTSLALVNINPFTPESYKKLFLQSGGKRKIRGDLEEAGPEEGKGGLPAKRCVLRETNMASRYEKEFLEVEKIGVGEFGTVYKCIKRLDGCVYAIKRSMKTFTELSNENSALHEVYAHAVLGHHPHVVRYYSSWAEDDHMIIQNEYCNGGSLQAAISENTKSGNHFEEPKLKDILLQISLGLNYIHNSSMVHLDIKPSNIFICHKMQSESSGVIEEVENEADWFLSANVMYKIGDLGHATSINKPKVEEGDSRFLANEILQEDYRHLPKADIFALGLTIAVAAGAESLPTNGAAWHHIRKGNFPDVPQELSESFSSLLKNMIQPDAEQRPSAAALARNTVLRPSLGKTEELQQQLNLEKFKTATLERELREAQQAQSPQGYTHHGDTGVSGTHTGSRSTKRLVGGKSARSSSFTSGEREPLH", "UniProt P36896, sequence (whole entry, looked up)": "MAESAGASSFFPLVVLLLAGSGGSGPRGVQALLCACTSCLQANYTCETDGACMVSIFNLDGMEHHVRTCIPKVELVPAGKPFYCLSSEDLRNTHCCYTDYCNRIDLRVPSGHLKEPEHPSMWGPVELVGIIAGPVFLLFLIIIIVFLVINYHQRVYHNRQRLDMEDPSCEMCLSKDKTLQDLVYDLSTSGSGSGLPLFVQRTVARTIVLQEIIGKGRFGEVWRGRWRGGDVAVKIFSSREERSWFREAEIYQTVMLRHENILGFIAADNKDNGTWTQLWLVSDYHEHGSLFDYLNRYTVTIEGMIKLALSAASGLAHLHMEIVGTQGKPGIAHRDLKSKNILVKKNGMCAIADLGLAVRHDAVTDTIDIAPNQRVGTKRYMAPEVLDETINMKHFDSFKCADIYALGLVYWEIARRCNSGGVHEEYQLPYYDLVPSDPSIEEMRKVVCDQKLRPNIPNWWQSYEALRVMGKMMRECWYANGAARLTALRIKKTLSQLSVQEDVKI", "UniProt P52333, sequence (whole entry, looked up)": "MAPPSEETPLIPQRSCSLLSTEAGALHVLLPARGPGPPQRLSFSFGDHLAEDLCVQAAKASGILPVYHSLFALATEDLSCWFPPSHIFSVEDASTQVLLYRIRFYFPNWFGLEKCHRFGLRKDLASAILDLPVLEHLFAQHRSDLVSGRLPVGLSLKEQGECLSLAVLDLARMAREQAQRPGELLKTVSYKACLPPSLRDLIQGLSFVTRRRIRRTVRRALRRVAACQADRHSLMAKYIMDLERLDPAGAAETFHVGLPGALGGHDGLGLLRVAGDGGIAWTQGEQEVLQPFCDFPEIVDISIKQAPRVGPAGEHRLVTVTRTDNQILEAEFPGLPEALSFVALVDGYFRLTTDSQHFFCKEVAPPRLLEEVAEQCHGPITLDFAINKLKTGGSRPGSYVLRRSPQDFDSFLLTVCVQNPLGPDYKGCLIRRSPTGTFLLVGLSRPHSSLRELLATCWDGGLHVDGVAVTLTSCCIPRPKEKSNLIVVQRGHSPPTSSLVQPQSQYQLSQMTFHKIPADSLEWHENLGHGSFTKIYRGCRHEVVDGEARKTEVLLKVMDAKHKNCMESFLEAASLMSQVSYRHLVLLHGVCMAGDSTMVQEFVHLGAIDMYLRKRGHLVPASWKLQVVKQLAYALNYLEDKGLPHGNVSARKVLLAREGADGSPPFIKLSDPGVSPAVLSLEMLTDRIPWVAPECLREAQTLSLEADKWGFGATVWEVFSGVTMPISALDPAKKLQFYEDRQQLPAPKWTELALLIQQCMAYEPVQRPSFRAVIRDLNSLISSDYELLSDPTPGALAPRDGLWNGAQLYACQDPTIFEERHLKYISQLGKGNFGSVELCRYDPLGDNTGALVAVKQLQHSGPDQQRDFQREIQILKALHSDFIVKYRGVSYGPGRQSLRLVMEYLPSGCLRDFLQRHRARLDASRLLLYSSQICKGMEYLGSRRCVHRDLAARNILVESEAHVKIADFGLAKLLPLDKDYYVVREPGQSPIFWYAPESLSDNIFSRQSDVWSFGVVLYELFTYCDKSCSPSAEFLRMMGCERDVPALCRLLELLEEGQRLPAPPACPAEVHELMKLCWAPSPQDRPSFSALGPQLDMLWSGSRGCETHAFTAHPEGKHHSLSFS", "UniProt Q9UHD2, sequence (whole entry, looked up)": "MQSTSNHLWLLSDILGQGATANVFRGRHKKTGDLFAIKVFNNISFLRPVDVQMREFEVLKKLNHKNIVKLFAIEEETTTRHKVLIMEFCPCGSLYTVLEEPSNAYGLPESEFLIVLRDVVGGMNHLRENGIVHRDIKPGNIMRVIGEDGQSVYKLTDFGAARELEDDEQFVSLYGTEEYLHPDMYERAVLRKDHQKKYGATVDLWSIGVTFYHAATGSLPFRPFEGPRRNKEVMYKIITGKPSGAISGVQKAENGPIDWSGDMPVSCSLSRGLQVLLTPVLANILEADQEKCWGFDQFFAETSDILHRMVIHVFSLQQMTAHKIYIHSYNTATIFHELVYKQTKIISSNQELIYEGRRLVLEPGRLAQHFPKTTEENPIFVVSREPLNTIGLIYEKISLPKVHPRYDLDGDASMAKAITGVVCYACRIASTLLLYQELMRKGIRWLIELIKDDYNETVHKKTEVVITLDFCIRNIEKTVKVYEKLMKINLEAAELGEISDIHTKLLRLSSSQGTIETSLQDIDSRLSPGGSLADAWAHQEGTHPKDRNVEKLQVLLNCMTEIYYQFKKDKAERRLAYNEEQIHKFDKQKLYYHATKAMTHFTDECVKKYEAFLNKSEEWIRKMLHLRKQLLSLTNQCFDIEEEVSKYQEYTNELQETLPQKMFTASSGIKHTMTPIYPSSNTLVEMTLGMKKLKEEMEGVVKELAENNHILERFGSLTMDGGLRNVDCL", "UniProt O75116, sequence (whole entry, looked up)": "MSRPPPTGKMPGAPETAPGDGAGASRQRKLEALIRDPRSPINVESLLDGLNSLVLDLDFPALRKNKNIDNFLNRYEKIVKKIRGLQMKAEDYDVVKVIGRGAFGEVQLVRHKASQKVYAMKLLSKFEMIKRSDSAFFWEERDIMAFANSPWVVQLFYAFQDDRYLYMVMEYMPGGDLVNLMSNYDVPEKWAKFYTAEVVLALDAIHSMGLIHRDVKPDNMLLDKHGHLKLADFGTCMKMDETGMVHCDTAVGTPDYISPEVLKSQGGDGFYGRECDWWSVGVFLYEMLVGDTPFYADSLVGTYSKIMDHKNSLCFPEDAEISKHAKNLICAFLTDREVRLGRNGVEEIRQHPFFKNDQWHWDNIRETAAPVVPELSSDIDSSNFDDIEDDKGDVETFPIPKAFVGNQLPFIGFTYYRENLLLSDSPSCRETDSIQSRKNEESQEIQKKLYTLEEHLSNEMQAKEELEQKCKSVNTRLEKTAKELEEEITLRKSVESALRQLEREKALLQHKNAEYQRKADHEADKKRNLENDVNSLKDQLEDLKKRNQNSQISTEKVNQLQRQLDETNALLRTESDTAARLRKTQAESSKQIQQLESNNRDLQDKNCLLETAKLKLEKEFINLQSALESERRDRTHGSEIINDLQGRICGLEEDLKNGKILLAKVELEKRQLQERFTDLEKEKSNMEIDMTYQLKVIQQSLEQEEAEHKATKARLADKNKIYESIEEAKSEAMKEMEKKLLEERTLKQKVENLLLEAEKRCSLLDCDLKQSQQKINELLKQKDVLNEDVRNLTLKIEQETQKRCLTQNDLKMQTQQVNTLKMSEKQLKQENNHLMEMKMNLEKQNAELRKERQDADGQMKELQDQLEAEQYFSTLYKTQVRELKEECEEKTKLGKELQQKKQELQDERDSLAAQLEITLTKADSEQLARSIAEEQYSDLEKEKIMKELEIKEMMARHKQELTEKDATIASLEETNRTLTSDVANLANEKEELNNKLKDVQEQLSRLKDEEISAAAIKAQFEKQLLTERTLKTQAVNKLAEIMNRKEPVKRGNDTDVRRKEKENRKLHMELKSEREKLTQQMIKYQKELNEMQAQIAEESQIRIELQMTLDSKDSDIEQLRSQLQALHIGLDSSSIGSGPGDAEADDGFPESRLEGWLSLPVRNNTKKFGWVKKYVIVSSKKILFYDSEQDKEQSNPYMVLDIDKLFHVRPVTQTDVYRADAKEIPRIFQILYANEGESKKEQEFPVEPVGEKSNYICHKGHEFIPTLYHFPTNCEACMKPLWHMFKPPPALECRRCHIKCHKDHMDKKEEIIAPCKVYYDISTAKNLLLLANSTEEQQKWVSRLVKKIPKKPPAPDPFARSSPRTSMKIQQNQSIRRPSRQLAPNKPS"}
{"data": "Set 1", "target": "NFE2L1, bZIP domain (human)", "technique": "DHFR protein complementation", "medium": "yeast", "setting": "single substitutions, most at no-binding floor", "reference": "wild-type JUN-FOS pair", "reading": "higher = stronger binding", "starting sequence": "JUN, bZIP domain (human); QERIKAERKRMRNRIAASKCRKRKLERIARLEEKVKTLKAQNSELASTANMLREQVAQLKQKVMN; partner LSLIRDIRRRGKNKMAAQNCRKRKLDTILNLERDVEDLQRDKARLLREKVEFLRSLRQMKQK"}
{"Change": "A46C", "binding fitness [natural log]": -1.35}
{"Change": "T37P", "binding fitness [natural log]": -1.53}
{"Change": "A46P", "binding fitness [natural log]": -1.5}
{"Change": "S43A", "binding fitness [natural log]": -1.5}
{"Change": "L45R", "binding fitness [natural log]": -1.47}
{"Change": "K36V", "binding fitness [natural log]": -1.46}
{"Change": "L38W", "binding fitness [natural log]": -1.46}
{"Change": "A57R", "binding fitness [natural log]": -1.47}
{"data": "Set 2", "SMILES": "O=C1NC(=O)C(c2c[nH]c3ccccc23)=C1c1c[nH]c2ccccc12", "observed": "enzyme activity", "mode": "inhibitor", "concentration": "0.5 µM", "reference": "control"}
{"target": "ACVR1B (Homo sapiens, UniProt P36896)", "remaining activity": "112%"}
{"target": "GSK3B (Homo sapiens, UniProt P49841)", "remaining activity": "28.4%"}
{"target": "EPHA3 (Homo sapiens, UniProt P29320)", "remaining activity": "95.1%"}
{"target": "TBK1 (Homo sapiens, UniProt Q9UHD2)", "remaining activity": "84%"}
{"target": "MAP2K2 (Homo sapiens, UniProt P36507)", "remaining activity": "82.7%"}
{"target": "JAK3 (Homo sapiens, UniProt P52333)", "remaining activity": "63%"}
{"target": "FGFR3 (Homo sapiens, UniProt P22607)", "remaining activity": "70.7%"}
{"target": "LCK (Homo sapiens, UniProt P06239)", "remaining activity": "85.1%"}
{"target": "MAP3K5 (Homo sapiens, UniProt Q99683)", "remaining activity": "106%"}
{"target": "GRK7 (Homo sapiens, UniProt Q8WTQ7)", "remaining activity": "91.8%"}
{"target": "FGFR1 (Homo sapiens, UniProt P11362)", "remaining activity": "41.4%"}
{"target": "TEK (Homo sapiens, UniProt Q02763)", "remaining activity": "101%"}
{"target": "ULK2 (Homo sapiens, UniProt Q8IYT8)", "remaining activity": "92.9%"}
{"data": "Set 3", "SMILES": "C[C@H](c1ccc(F)cc1)N(Cc1cccc(C(=O)O)c1)C(=O)c1cnc2ccccc2c1", "observed": "cell-free assay", "technique": "competition with immobilised ligand", "concentration": "1 µM"}
{"target": "EPHA1 (Homo sapiens, UniProt P21709)", "remaining binding": "100%"}
{"target": "Cyclin-dependent kinase 4, with cyclin D3 (CDK4, Homo sapiens, UniProt P11802)", "remaining binding": "100%"}
{"target": "FLT3 (Homo sapiens, UniProt P36888, K663Q)", "remaining binding": "100%"}
{"target": "IRAK3 (Homo sapiens, UniProt Q9Y616)", "remaining binding": "100%"}
{"target": "WEE2 (Homo sapiens, UniProt P0C1S8)", "remaining binding": "100%"}
{"target": "ROCK2 (Homo sapiens, UniProt O75116)", "remaining binding": "100%"}
{"data": "Set 4", "Molecule": "B1 (IAA7)", "technique": "two-hybrid", "reference": "out of 4 tests", "reading": "higher = firmer interaction", "B1": "IAA7 (Arabidopsis thaliana, UniProt Q38825); chain MIGQLMNLKATELCLGLPGGAEAVESPAKSAVGSKRGFSETVDLMLNLQSNKEGSVDLKNVSAVPKEKTTLKDPSKPPAKAQVVGWPPVRNYRKNMMTQQKTSSGAEEASSEKAGNFGGGAAGAGLVKVSMDGAPYLRKVDLKMYKSYQDLSDALAKMFSSFTMGNYGAQGMIDFMNESKLMNLLNSSEYVPSYEDKDGDWMLVGDVPWEMFVESCKRLRIMKGSEAVGLAPRAMEKYCKNRS"}
{"partner": "ARF6 790-935 (Arabidopsis thaliana, UniProt Q9ZTX8)", "positive tests": 4}
{"partner": "ARF14 497-605 (Arabidopsis thaliana, UniProt Q9LQE8)", "positive tests": 0}
{"partner": "IAA8 (Arabidopsis thaliana, UniProt Q38826)", "positive tests": 3}
{"partner": "ARF5 788-902 (Arabidopsis thaliana, UniProt P93024)", "positive tests": 4}
{"partner": "IAA26 (Arabidopsis thaliana, UniProt Q8LAL2)", "positive tests": 0}
{"partner": "IAA17 (Arabidopsis thaliana, UniProt P93830)", "positive tests": 2}
{"partner": "ARF12 500-593 (Arabidopsis thaliana, UniProt Q9XID4)", "positive tests": 1}
